Measured values collected from several papers.
Every numbered part comes from another study and shows a few of its results, in no order.

Set 1
Target: Histone acetyltransferase KAT6A, winged helix 1, GST fusion (KAT6A, Homo sapiens, UniProt Q92794, residues 1-85)
Technique: protein binding microarray
Molecule type: double-stranded DNA, one strand shown
Sample: in vitro
Tested at: not given
Setting: 8-mer, flanks averaged, mean of 2 arrays, mostly near background
Reference: not given
Reading: higher = stronger binding
Target sequence (chain): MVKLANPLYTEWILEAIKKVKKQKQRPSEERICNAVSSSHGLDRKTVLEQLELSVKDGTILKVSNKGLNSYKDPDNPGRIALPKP
| Strand | E-score |
| --- | --- |
| CATCCTTC | -0.0283 |
| TACTAGAA | 0.00874 |
| ACCCTAGT | -0.239 |
| AACGGTGA | 0.117 |
| AGCACCCA | -0.189 |
| ACGGGGTA | 0.158 |
| CAGTACCA | -0.224 |
| CGTACCAG | -0.0114 |
| CATGCAAG | -0.0296 |
| GCTGGTAA | -0.0213 |
| GACACTCA | 0.0122 |
| GGAGAACC | -0.0663 |
| CATACAGC | 0.114 |

Set 2
Target: RING finger protein unkempt homolog, zinc fingers 1-6, GST-SBP tag (UNK, Homo sapiens, UniProt Q9C0B0, residues 30-357)
Sequence of UniProt Q9C0B0 (30-357, looked up): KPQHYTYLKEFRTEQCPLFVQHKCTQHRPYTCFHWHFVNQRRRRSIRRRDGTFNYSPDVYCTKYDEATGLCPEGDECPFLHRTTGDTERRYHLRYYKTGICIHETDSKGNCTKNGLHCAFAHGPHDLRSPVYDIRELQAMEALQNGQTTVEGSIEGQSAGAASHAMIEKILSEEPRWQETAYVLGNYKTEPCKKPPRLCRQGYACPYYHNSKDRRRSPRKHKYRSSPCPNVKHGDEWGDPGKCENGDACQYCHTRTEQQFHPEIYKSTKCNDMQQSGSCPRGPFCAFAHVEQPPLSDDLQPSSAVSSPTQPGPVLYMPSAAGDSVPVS
Technique: RNA Bind-n-Seq
Molecule type: RNA
Sample: in vitro
Tested at: not given
Setting: RNA with constant flanks, human and mouse sites, ends assumed
Reference: input RNA pool
Reading: higher = stronger binding
| Strand | bound/input enrichment |
| --- | --- |
| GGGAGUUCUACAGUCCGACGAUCCAUCUUAGGUCAUCUUCUGUAGAAGAUGUUAAACUAAUUAUAAGCGAGGGGAGACCUACCAUAGAAGUUCGAAGAUGUAGCAUGCCUUCUGUCAUUUGUGAACAUACCAAACAAUUCCAACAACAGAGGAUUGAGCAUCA | 1.12 ratio |
| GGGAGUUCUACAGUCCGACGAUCCUAGGUGUGAGAGCUCUGGGGCACUGUGGGUGCGGUGAUCUGCAGGUAAAGCCCCACACCAUAGACAGUGCUCUGUAGGAAUAUAUGAAGGAUAUUUGCUUCUUGUGAGUCCAUUUCUUACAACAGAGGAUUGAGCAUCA | 0.556 ratio |
| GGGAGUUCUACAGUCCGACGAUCUUCAGAUAUUCUUAGUAACCAAAACAGUGACUCAUGCAGUUGAGAGAGCCUUUGGGCUGUCAGUUUACAGUACAUCAGGCUUGCUGAGGCUAAGCAAAUCAGAAAGGUGCCAUGUUUAUACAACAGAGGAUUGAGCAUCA | 0.239 ratio |
| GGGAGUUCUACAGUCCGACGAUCAACACGAUUCCCAGUUUCUUCAACUGGUUCUCAGACCACAGCCUCCUAGAAUUCGACAGAAUAGCUGAAAUUAUCAAAGGGGAGCUGUGGUCCAAUCCCCUACAAUACUAUCUGAUGGGCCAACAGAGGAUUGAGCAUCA | 0.41 ratio |
| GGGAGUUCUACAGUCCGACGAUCAUAAUAAAAGCUUCCAGCAAAGAUGCCAUCAGGCUUUUGGAUUCCGUGCCUCCCACUGCCAUUAGUCACUUCAAACAAUCAGCUGAGAAGCUGAUAGAGGAGAAGGGAGCUGUGGAAGCUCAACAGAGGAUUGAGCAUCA | 0.162 ratio |
| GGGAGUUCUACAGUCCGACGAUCUCAGAGGAAAUCGAGACAAGCGAACUGCCCCAGAAAAUGAAAGGCAAGCUGAAAAAUGUACAGUUAAAUACUAAAAGUAGAGUAAAAGGAUCAUCUAAGGUUAAGGAAGAUUCAAAAUUUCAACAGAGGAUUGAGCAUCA | 0.961 ratio |
| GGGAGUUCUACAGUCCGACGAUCUAAUAUUUUUGUGAACUGGUGUAAAUUGUUAAUGCAUAUAAGCUUGUGUAUUUUUGUAAAUAGUUUUGUGAUUUACUUCUUGCCCCCUGUGUAAAUAUUUACAGUCUCAUUUCUUCCAAACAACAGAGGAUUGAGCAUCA | 0.521 ratio |
| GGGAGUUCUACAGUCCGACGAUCCAUUUGCGGAGGAACAUUGGUGUUACAGCAGUGGCAUUUAAUAAGGAACUUGAUCCUAUACAGAAACUCUUUGUGGACAAGAUUAGAGAAUACAAAUCUAAGCGACAGACAUCUGGAGGACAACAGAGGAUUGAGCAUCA | 0.196 ratio |
| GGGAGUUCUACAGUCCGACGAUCCUGUGGCUUAUAUUUAUCAUCUGUGUCUGCUAUUAUGUUGCUGUGUUCCCUUUUAUUGGACUUGGGAAAGUUUUCUUUACAGAGAAAUUUGGAUUUUCUUCCCAGGCAGCAAGUGCAAUUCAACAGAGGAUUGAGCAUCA | 0.346 ratio |
| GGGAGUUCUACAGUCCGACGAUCAAGGCAACAGAUGAAACGGGUGUAUCUGCUGUUCAGUUUGGAAACUCUUCUACAUCAGUAUUAGCUACAUUAGCUGCCUUAGCUGAAGCAUCUGCUCCAUUGUCCAAUUCUUCAGAAACUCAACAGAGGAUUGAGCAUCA | 0.291 ratio |
| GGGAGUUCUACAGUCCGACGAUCGACCCCCACUCCCUGUGAGAGGGAAUGGGGGAAGCCUGAUGACCCUCAGCUGUUCCAAUCUAGUAUUUUUUUUCUUUUUUAAAAUUACUGUAUUUAUUAUGACGAUGGUGACUCCCCAGUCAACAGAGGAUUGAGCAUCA | 12.2 ratio |

Set 3
Substance: PhoQ, residues 284 288 289 292 302 303 AGCYAI
Technique: Sort-seq
Refers to: YFP reporter
Sample: E. coli
Setting: PhoQ-PhoP variant library
Added: 10 µM Mg2+
Reference: high Mg2+ state
Reading: higher = stronger signaling
| target | fold induction |
| --- | --- |
| PhoP, residues 12 14 15 18 19 NFFVT (Escherichia coli, UniProt P23836) | 1.6 |
| PhoP, residues 12 14 15 18 19 TPWTL (Escherichia coli, UniProt P23836) | 0.668 |
| PhoP, residues 12 14 15 18 19 LHHYF (Escherichia coli, UniProt P23836) | 9.51 |
| PhoP, residues 12 14 15 18 19 VGHWL (Escherichia coli, UniProt P23836) | 4.32 |

Set 4
Target: PABPC1L2, full length, GST fusion (mouse, UniProt A0ABA7IW68)
Technique: RNAcompete
Molecule type: RNA
Sample: in vitro
Tested at: 20 nM
Setting: 7-mer, probes averaged, single round
Reference: mean of 7-mers
Reading: higher = stronger binding
Construct (chain): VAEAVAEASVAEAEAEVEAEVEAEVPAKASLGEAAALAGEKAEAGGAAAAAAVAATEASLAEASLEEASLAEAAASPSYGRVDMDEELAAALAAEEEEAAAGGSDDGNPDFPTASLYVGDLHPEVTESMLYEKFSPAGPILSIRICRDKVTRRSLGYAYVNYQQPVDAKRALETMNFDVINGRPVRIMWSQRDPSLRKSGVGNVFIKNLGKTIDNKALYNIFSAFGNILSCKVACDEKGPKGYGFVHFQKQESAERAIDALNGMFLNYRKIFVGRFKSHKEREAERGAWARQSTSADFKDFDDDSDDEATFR
| Strand | 7-mer Z-score |
| --- | --- |
| UCCAGUU | -0.396 |
| CGGCCCC | -0.398 |
| UGAUCAC | -0.157 |
| GACAAAC | 0.675 |
| CGUUCGA | -0.391 |
| CUUCCUU | -0.356 |
| CGAGAAU | -0.166 |
| UUUCGAU | -0.26 |
| ACGAAUU | -0.0681 |
| GAAAACC | 1.2 |
| ACAAUAG | 0.166 |
| UCCGAUA | -0.0428 |
| GGGUGCA | 0.18 |
| GUCGUGC | -0.249 |
| AACGGCC | 0.000733 |
| CUAGGCU | -0.157 |

Repeated from above (set 1):
| Strand | E-score |
| --- | --- |
| CAGTACCA | -0.224 |
| CGTACCAG | -0.0114 |
